Assay results from different studies.
Every numbered part comes from another study and shows a few of its results, in no order.

Series 1
Target: Hepatocyte nuclear factor 3-alpha (Foxa1, Mus musculus, UniProt P35582, residues 1-468, full length assumed)
Method: EMSA with sequencing
Form: double-stranded DNA, one strand shown
Medium: in vitro
Concentration: 10 and 20 nM
Setting: whole designed probe, mean of two concentrations, ends assumed
Baseline: negative control set to 0
Direction: higher = stronger binding
Shared flanks, not repeated: GTGAGCGGTGCCCATTGATGGGGAAC … TTTCACTGGGATCGTGGGGAC
Construct (chain): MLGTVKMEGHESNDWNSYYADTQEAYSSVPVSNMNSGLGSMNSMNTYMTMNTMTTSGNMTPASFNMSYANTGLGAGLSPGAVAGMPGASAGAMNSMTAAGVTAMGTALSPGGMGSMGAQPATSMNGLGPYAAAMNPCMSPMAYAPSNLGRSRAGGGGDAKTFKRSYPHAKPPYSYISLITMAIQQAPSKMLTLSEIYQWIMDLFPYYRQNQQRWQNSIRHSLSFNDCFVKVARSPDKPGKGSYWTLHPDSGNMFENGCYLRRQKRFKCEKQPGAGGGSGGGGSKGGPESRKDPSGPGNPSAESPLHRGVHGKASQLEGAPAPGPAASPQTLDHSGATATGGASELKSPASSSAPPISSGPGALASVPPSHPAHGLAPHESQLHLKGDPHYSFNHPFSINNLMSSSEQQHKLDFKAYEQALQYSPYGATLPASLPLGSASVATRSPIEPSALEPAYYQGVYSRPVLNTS
Sequence | normalised bound fraction [ratio]
TTTACTTGTTTCTTTACATCACAGATATTTTGTTGAAAACTATTAAGATAGTATTTCTAGAATATAATAAAACATTCAGAATAGCATTGCTAAGCAAATACACTGTGCCATGATTATGTTTTTTTGCAATGTGTATGCAATTGCTTTATTTTACATTAGGAAATAGACAAAATGCATCTATTCATTTTTCTTT | 0.283
ATCTCGTAACAAATGGCTTCAGGGTGTTCAGCTGTTCTGCAGCTATGCTGAGGAATTCCTGCCTGTACAAAAGTCACAGTGCCAAGTCCTGTTTGTTTACATTTTACTAATAAACCTCTGCCTCTGTGCTTAGCCTGAGGGGCTGCAGAGCTCCACACCCAGGAGTGGGCCCTCTGGGGATGCTGGGGTTTGA | 0.48
CATTAGAGTCAAAGTTGTTAAGGGGAGCTAGTCATAGCTACCACGTGGCCAGGCATGTGGAACCAGACACCAGGCACACATCATGAATCATCAAAATTACTTTAAATAATGCTGACAACCTAGTTCATAGTGACACACTACTTGAGATATATAGAATAACATTATTACCCAGTAAGTATGTGAACATTCCGAT | 0.116
TCGGCCAGCCTGGCTTCTGCGCCCCGCCAGGAGGTCGCGGAGCGGAGCGCGGCCAGGAAGTGAGCTGAGAGTGACAGCTCCCCCCACGCTGTTTGTTTATTCATGTCACATTCTCTCCACACACTGGCTCTTCTTTCTTTCGGGAGGAGGGGAGAAAGGAGCGGGAGGGCGGGCGGGCAGGGGAGAGGCAGGC | 0.382
GGGTGGGGAAGCAAACATTCAATACTTTGCACCAGTGTAACACCAATTATACTGGATTCATTTAATATGCTTGTCTCCTATTAATTAATATTTGTTTACATTGTCAATGTTTTGAAAGTACTTCATAATCAGTATGATATTTCCTATTACGCCTTCTCCATGTAAAAAATATTTATCCATCTATCTATAAACT | 0.516
ATCTTCCCCCTCTTCCTTGCCCCACCAGCTCACCTTCCCGGGTTATTTGCAGATAGGAAAATAAATAAAGCCGGCATTCGTTAACCCTCTTCTGGCGCAAACTGCTGTTTGCTCTGGATGAATCATGGTCCTTTGGCGACGCCAGGCTCCGGGAGAGCAAAGCACCGTCTGGAGGCCATGATCCGGGGTGGCC | 0.333
GTGTGTGCGCGCGCGTGTGTGTGTGTTTTCTTAAGCCGGGCTATTCAAACCCTGCTGCAATTCTCCGGTAAACAATGTTACATGGGGCATAATGCAAATAAACGGATTGCAAACGGCAATGATTCATCACTTTGCAGCCGGCCCGGTGGAGCAGCCAGTGCCGGATTTCTCCCTTTTTTTGCAGATCTGCAGA | 0.432
CTCTCTGGTGGTTCTAGCTCATACACGGCTAATGATTTATGAGGCAGTGTTGTGTGGCACTACCTAGCTGTTACTTTCTTGCCTACTCTGCTGAGTAATCTGGGGCCCTGTCTTAGCTGGGTTTGAAGTCTGTTCCCTAGGGAAGGGCACTGTGTCCCCGAGTCACCAGAGAGGAGGGGCAAGGGCATCTCCT | -0.0951

Series 2
Target: RNA binding protein fox-1 homolog 2, RRM domain, GST-SBP tag (RBFOX2, Homo sapiens, UniProt O43251-10, residues 100-194)
Method: RNA Bind-n-Seq
Form: RNA
Medium: in vitro
Concentration: 365 nM
Setting: natural RNA segment, single round, ends assumed
Baseline: no-protein control
Direction: higher = stronger binding
Shared flanks, not repeated: GGGAGUUCUACAGUCCGACGAUC … UGGAAUUCUCGGGUGCCAA
Construct (chain): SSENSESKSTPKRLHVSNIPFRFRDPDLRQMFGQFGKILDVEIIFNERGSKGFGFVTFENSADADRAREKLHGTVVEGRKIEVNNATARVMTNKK
Sequence | RBNS enrichment (R)
CAAAUUGGGAUCCUAACCUAAGAUGCCUUAAACUUAUUAACAUGACCAUUAUAAGAAAAGAUAUAUGGAGUUGUAUCUUACUGGAAUUAAUAAACACUGCUUGACCACCG | 0.783
UGGUAGGCCUCAUGUCAGAAUCAGGACCCUGCACUUCAGGACCCUUGCUUCUGCCCACCAAUCAGAGUCUGACUGGCAGUGUUAGUCUCCGACAGAGCUUGUACUAGGGC | 0.432
GCACACAUCCAUUGGACUAUGCAAAUCAAUUUCUACUAGCAGCACUGAGCAACUGGGCACGUGCUAGUACGCACCCCCUCCUACUCUAACUGUGCUAGCUCUUGGGUUGA | 0.498
UUACAGAGUAAUCUUUGAUUUCUCCAUCUGAUGUGGCCCUGGGAGCUGGAGCAAGAGUCCACCUUUAGCUGUGCCUGCCUUUACUUCUGUGCCUCACAAGUGCCUUUUGA | 0.354
GGAUUUCUUUUGACAAUACUGUUGGUACCUAUUACUUGGGGGAGGACAUGUUGCAGAAGACCAGAUCAUUUUUAUACAGAAUGUGAAAUACUGAUACAGUUAUUCUUUUU | 0.572
GCUCUUGGAACCCUCCAGAGGAAGAGGCAAGCGUUUGACUUCCCCUUUACCACCUGAGGCCUCCUUAUAUCUCUUCCCAGAGUAAGCUUUGGGAUUGUAGACAUGUGGGA | 0.179
UUUGUAUGCGUUUGCUAAUGGUAGCUAAAUAACCAGUUUUUGUUGUAAAUGCACCAAUUCUGAAGGCACUUUAUGUACUACAUGGAGGUCAUAUCUGGUUUUGUUUUUAU | 0.634
CCACCUUGUGUUCAGAAAGCAAAAGUGAAGUGAUAGCCAAGCAUGGGCCACUAGAUGGAGUAUCCUGGGCCUUUGUAGCAUAGCUCUUCUCUGGAGCACCCUAUUUGCUU | 0.769
UACCAAAGCAAUAUUUCUUUGGGAUUCAGUUCAGUGUUUGUGGCAUCUAAUCUGAUCCUUCUUUACGUGUCUAAAUCAAGACUGUAUCCACAUUUUACCACGCGGCCAUA | 0.302
AUACAUGUAUAAACUGUAUAGUGUACAUGUUAAUGAUUUAUCAGUAUGCCCCGAAUUCCUAGUGCAGUUCUCAUUCUCCGCAUGCCCUCAGCUGUGGUCAGGUGACUUCC | 0.233
GAUGACAUGCUCCAUACCAGUGGCUAGAUGGAGUAUUAAGGUGGAGCAGAAAAGAAGUGAGAACAUCUUGAUUCCCCUUUCUUUUACUUGAUGGUGUUUAUGAACAUGCC | 0.793
GCCCCAUGGACACUUUUUUAAAUCUCCAGGAUGUCUGAAACAAACCAGUAAAAUGUCUAUGACUCUUACAUGUUGUCAUUCUUCUUCUUUUGGCUUUGCUGCUCUGAUGA | 0.599

Series 3
Target: Sal-like protein 4, full length isoform A (SALL4, Homo sapiens, UniProt Q9UJQ4, residues 1-1053)
Sequence of UniProt Q9UJQ4 (whole entry, looked up): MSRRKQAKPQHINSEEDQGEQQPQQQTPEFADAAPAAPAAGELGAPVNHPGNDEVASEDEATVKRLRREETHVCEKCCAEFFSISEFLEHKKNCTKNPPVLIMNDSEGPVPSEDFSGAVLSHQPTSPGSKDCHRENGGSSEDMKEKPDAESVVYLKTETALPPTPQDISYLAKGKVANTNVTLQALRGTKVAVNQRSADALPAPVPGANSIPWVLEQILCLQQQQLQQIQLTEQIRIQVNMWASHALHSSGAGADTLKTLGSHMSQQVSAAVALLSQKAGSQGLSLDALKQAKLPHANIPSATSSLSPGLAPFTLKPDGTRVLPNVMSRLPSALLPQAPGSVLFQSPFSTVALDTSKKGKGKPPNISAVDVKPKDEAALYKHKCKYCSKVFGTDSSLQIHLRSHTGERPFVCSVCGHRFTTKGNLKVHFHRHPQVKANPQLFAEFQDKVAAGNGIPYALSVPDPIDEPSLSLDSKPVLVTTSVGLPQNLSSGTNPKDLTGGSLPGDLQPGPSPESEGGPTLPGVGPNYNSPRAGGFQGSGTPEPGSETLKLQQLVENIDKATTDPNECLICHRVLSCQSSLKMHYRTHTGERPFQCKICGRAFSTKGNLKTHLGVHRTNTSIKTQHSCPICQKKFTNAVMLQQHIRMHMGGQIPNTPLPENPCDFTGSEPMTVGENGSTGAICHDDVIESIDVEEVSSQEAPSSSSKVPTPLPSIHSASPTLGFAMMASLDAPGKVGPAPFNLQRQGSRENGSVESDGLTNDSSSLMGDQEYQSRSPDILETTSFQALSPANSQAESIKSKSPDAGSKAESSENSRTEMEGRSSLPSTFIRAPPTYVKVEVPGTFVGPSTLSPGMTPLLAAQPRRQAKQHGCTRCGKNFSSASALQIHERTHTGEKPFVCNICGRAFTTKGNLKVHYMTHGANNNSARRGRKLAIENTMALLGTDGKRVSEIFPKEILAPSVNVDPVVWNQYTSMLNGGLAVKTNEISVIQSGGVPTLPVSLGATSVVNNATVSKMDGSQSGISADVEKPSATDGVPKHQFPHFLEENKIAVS
Method: universal PBM
Form: double-stranded DNA, one strand shown
Medium: in vitro
Concentration: 600 nM
Setting: 8-mer, flanks averaged, mean of replicates
Direction: higher = stronger binding
Sequence | E-score
AAGGAGCG | -0.16
AACCATCG | -0.0297
TCATTTAA | 0.19
ACCGGGCG | -0.374
GGTATACC | -0.104
GCATTCCC | -0.114
CACGAACG | -0.104
ACCGTAGT | -0.213
AGAAATGC | 0.135
GAGTCACC | -0.306
CAAGGTTA | -0.00303
CATGACCG | -0.105
GGAGCTAA | -0.156
CGTGTGGA | -0.306
GTCATCAC | 0.0166
GCGGTAAA | -0.059
AGATGGAC | -0.0796

Series 4
Target: RING finger protein unkempt homolog, zinc fingers 1-6, SBP tag (UNK, Homo sapiens, UniProt Q9C0B0, residues 30-357)
Sequence of UniProt Q9C0B0 (30-357, looked up): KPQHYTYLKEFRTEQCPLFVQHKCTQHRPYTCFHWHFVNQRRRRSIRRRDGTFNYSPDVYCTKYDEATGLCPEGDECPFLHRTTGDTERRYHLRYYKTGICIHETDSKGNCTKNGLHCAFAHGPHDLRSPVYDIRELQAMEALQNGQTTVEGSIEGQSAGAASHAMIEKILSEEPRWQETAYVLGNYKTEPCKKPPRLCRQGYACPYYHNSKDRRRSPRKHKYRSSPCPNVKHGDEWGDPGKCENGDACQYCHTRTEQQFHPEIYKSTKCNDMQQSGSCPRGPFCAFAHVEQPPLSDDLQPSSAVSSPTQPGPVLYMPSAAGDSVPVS
Method: RNA Bind-n-Seq
Form: RNA
Medium: in vitro
Concentration: 100 nM
Setting: RNA with constant flanks, vertebrate orthologous sites, ends assumed
Baseline: input RNA pool
Direction: higher = stronger binding
Shared flanks, not repeated: GGGAGUUCUACAGUCCGACGAUC … CAACAGAGGAUUGAGCAUCA
Sequence | bound/input enrichment [ratio]
UCUAGUUCUUAACCACCAACACUCCUAAAAGAUUUAGAAAAAAACGUUUACACCAUAAUCUAGUUUAUGAAGAAGUCUUGUGCUAGAAUACUUUUUAAAAAGUAUUUUUGAAUACCAUUA | 0.977
AGUCUCGGGAGAGGAUUAGGUUCGAUCCUUUACGUGUUAAAAAAGAAAGCAUAAAAACAUUAGAAAAAUUCAGCAAACCAUUUUUAAAGUAGAAGAGGGUUUUAGGUAGAAAAACGUAUU | 1.52
UUUUUUUUUUUGCACAUGACAGUGUUUGUAUUGAGGAUCUUCCAAGGAAGAGGGGUGCUGUAGCAGUGGUGCCUGGGUACCUGGCCUCCAGUGUCCCACCUCCUUCACCACCCCGCUUGG | 0.43
ACAAGCCACAUAGGAUAUUUGUGCUAUUUAAAAGUGAGCUUUGCUUUUUCUGCAUUCAAAGAGAAUCCUUUUGUAUCAGGGGUGCUUUAAAAGUGUGAAGGUGUGCUCUGCUAAUCCCAG | 0.532
GUUUUUAGAUUUCAUCUCUUUAAUUAGUAUGAGGGUUUGAAAUACUGAAUAGUUCCACCACAAAUUAACACUGGCAGGUGUUCCAAGAUAGCACUAUAGUCAUUUCAAAUACCCUUAUGG | 1.42
AAAUUUAUUUCAUGCCCUGGACUCCCUACCGUACCGACACUUUAAUAGAGUACGCUUCUUUGGAAGAUUUCCAGAACAGUCGCCAAACAACAACAUACAAACUUCCAAAUCGAGUAGAUG | 0.856
UGUCUGCCUCAUUCUAAAAUUUACACAGUAGACCAUUUGUCAUCCAUGCUGUCCCACAAAUAGUUUUUGUUUACGAUUUAUGACAGGUUUAUGUUACUUCUAUUUGAAUUUCUAUAUUUC | 1.15
AGAAAAUUUUAACCAAGAAUCUGAAGGUAGAAAUACAGGACCAUGGUUAUCUUCCUCACUUAGAAAUAGAUGCACACCUUUGUUCUCUAGAAGGAGGCGUGAGGGAAGAGAUGAAUCUUC | 0.848
AAGCCCUGUGAAGGUCUACUGACCGCUCACUAUUGUCUGGUAUCUGUAAACACUUCUGUUUAGUCCUUUCAUUGUAUAAUUGAUGUUCCUUAAAACUGUCAGUGUAAAACAGGGCUUAUG | 0.777
UCCCAGCACUUUGAUAAAAAGUGUGGACUGGUUGCUUGUAUUUUCCUUAUUCUUUUUAAUUAGUUUUAUUAUGUAUGCUACCAUUCGAACUGAGAGUAUUCGGUGGCUAAUUCCAGGACA | 3.47
AAAUUCCCCCAUUGUCACUGAGAACCACCAAAUCUGACUUUUACAUUUGGUCUCAGAAUUUAGGUUCCUGCCCUGUUGGGUUUUUUUUUUUUUUUUAAAAAAAAAAACCAGUUUUCAAAA | 0.655

A few entries again (series 1):
Sequence | normalised bound fraction [ratio]
TCGGCCAGCCTGGCTTCTGCGCCCCGCCAGGAGGTCGCGGAGCGGAGCGCGGCCAGGAAGTGAGCTGAGAGTGACAGCTCCCCCCACGCTGTTTGTTTATTCATGTCACATTCTCTCCACACACTGGCTCTTCTTTCTTTCGGGAGGAGGGGAGAAAGGAGCGGGAGGGCGGGCGGGCAGGGGAGAGGCAGGC | 0.382
GGGTGGGGAAGCAAACATTCAATACTTTGCACCAGTGTAACACCAATTATACTGGATTCATTTAATATGCTTGTCTCCTATTAATTAATATTTGTTTACATTGTCAATGTTTTGAAAGTACTTCATAATCAGTATGATATTTCCTATTACGCCTTCTCCATGTAAAAAATATTTATCCATCTATCTATAAACT | 0.516
ATCTTCCCCCTCTTCCTTGCCCCACCAGCTCACCTTCCCGGGTTATTTGCAGATAGGAAAATAAATAAAGCCGGCATTCGTTAACCCTCTTCTGGCGCAAACTGCTGTTTGCTCTGGATGAATCATGGTCCTTTGGCGACGCCAGGCTCCGGGAGAGCAAAGCACCGTCTGGAGGCCATGATCCGGGGTGGCC | 0.333
GTGTGTGCGCGCGCGTGTGTGTGTGTTTTCTTAAGCCGGGCTATTCAAACCCTGCTGCAATTCTCCGGTAAACAATGTTACATGGGGCATAATGCAAATAAACGGATTGCAAACGGCAATGATTCATCACTTTGCAGCCGGCCCGGTGGAGCAGCCAGTGCCGGATTTCTCCCTTTTTTTGCAGATCTGCAGA | 0.432
CTCTCTGGTGGTTCTAGCTCATACACGGCTAATGATTTATGAGGCAGTGTTGTGTGGCACTACCTAGCTGTTACTTTCTTGCCTACTCTGCTGAGTAATCTGGGGCCCTGTCTTAGCTGGGTTTGAAGTCTGTTCCCTAGGGAAGGGCACTGTGTCCCCGAGTCACCAGAGAGGAGGGGCAAGGGCATCTCCT | -0.0951
